Measured values pooled from the literature.
Each numbered part is a random draw from the data of one study; scales do not carry over between parts. Several values in a cell are separate wells, animals, samples, runs or records.

Study 1 — method: universal PBM; molecule type: double-stranded DNA, one strand shown; sample: in vitro; tested at: 600 nM; reading: higher = stronger binding; measurement: E-score
Target: Sal-like protein 4, full length isoform A (SALL4, Homo sapiens, UniProt Q9UJQ4, residues 1-1053)
Sequence of UniProt Q9UJQ4 (whole entry, looked up): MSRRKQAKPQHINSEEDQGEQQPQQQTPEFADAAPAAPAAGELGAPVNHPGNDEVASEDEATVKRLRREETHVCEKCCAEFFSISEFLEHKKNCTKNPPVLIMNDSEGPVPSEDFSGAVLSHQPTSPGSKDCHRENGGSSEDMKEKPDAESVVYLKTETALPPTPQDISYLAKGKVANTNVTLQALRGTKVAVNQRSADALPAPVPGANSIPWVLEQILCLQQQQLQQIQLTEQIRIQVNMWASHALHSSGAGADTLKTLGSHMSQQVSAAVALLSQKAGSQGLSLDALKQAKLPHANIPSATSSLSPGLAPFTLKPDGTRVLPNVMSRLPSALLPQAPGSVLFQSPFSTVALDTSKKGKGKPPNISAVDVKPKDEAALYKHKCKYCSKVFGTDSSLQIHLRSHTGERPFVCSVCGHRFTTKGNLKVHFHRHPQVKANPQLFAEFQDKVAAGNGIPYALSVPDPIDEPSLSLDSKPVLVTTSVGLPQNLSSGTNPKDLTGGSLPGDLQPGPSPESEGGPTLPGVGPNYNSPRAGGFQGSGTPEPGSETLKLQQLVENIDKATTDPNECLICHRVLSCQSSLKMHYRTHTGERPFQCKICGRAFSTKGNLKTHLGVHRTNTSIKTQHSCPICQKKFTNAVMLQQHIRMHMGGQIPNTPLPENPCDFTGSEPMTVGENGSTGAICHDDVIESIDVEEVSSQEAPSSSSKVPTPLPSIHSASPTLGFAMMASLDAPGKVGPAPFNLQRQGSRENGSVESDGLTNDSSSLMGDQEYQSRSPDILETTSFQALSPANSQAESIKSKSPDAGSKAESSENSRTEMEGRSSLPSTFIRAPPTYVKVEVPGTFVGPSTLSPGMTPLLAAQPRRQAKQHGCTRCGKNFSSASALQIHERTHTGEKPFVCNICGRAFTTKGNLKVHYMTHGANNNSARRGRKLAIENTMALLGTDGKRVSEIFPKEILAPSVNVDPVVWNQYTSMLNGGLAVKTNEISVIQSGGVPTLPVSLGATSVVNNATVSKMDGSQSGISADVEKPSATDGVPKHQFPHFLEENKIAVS
Notes: 8-mer, flanks averaged, mean of replicates
Sequence = GATCATCA; result = 0.0063
Sequence = AGTAAGCC; result = -0.0949
Sequence = GCTAGGGA; result = -0.184
Sequence = ACCGGGCT; result = -0.231
Sequence = ATCAAAAA; result = 0.321
Sequence = CTTTTAAA; result = 0.215
Sequence = GGGCGAGA; result = -0.296

Study 2 — method: protein-binding microarray; molecule type: double-stranded DNA, one strand shown; sample: in vitro; tested at: not given; reading: higher = stronger binding; measurement: E-score
Target: TATA-box-binding protein 1 (TBP1, Arabidopsis thaliana, UniProt P28147, residues 1-200, full length assumed)
Notes: k-mer, scored over probes, only values ≥0.25
Residues (chain): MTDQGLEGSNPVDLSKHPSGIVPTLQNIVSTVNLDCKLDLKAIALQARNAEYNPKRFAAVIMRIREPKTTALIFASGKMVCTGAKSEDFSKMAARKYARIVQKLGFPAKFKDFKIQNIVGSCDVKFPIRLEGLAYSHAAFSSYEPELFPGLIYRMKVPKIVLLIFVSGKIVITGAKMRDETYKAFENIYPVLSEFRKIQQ
Sequence = GAGATAA; result = 0.29
Sequence = GTATTAA; result = 0.341
Sequence = ATAACTA; result = 0.321
Sequence = ATATTAG; result = 0.407
Sequence = AAATCAT; result = 0.3
Sequence = AAATAGT; result = 0.304

Study 3 — method: RNA Bind-n-Seq; molecule type: RNA; sample: in vitro; tested at: 20 nM; notes: 6-mer, flanks averaged, single round; with: 150 mM LiCl; reference: input library; reading: higher = stronger binding; measurement: 6-mer enrichment (R)
Target: TAR DNA-binding protein 43, full length, His tag (TARDBP, Homo sapiens, UniProt Q13148, residues 1-414)
Sequence = AUCUAG; result = 0.82
Sequence = UGCUUU; result = 1.11
Sequence = UGGGAG; result = 1.26
Sequence = UGGUUU; result = 1.27

Single results of other studies
Substance = PhoQ, residues 284 288 289 292 302 303 DDMDFR; target = PhoP, residues 12 14 15 18 19 LWHCS (Escherichia coli, UniProt P23836); test = Sort-seq, refers to: YFP reporter; system = E. coli; setting = PhoQ-PhoP variant library, with: 10 µM Mg2+; how to read = reference: high Mg2+ state, higher = stronger signaling; measurement = fold induction; result = 0.997 and 0.879

A few entries again (study 2):
Sequence = GAGATAA; result = 0.29
Sequence = GTATTAA; result = 0.341
